# Experimental data pooled from the literature.
# Numbered parts are unrelated; each lists some results of a single study.

# Series 1
# Target: Histone acetyltransferase KAT6A, winged helix 1, GST fusion (KAT6A, Homo sapiens, UniProt Q92794, residues 1-85)
# Technique: protein binding microarray
# Molecule type: double-stranded DNA, one strand shown
# Medium: in vitro
# Tested at: not given
# Notes: 8-mer, flanks averaged, mean of 2 arrays, mostly near background
# Relative to: not given
# Reading: higher = stronger binding
# Residues (chain): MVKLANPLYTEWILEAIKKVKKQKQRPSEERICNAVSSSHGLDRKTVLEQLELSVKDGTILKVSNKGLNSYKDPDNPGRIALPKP
Sequence,E-score
GGTCTAGA,-0.147
TGCAGGCA,-0.201
CATCATTA,-0.025
AGTCTACG,0.0224

# Series 2
# Target: Ras GTPase-activating protein-binding protein 1, full length (G3BP1, Homo sapiens, UniProt Q13283)
# UniProt Q13283, sequence (whole entry, looked up): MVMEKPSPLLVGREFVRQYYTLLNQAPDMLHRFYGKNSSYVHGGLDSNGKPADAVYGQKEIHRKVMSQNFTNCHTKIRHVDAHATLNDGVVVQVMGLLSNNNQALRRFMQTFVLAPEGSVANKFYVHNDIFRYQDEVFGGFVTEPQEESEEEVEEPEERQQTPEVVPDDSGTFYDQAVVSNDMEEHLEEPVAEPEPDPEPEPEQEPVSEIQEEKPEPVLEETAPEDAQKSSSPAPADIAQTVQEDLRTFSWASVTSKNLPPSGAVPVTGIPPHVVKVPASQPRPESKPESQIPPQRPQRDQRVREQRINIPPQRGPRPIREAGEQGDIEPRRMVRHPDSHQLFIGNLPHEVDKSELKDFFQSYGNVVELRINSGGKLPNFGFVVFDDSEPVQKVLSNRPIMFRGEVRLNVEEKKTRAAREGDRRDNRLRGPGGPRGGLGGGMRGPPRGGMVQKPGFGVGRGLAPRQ
# Technique: RNA Bind-n-Seq
# Molecule type: RNA
# Medium: in vitro
# Tested at: 200 nM
# Notes: whole 134-nt RNA, ends assumed
# Together with: 150 mM KCl
# Relative to: input library
# Reading: higher = stronger binding
Sequence,log2 enrichment
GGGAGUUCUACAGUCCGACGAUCCUGUGCUACACAUCGUAUGUACCGAAUCGGGAAAAAAAGGGAAAAAAAGGGGAAAAAAAGGAAAGUAUUAUGUUACGCCGUUCGGAUCUGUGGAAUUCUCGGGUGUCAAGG,-0.703
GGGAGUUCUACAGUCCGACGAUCGUGCUACACAUCGUAUGUACCGAAUCGGGGUUUUUUUGGGGAAAAAAAGGGGAAAAAAAGGGGAAAGUAUUAUGUUACGCCGUUCGGAUCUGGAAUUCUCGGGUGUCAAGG,-0.361
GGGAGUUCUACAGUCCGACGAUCCACAGACAAAAAGCACCCACACAGACACAGAGGGAAGGGGUUGGGAUGGGGACAGGGUGCACAGCAGGGCGGGGUAGGACCCCAGCCCCUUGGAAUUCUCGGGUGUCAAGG,1.82
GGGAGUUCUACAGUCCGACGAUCUAACUUUAGAGGAGGAUCUGAUGGAUAUGGCAGUGGACGUGGAUUUGGGGAUGGCUAUAAUCGGUAUGGAGGAGGACCUGGAGGUGGCAAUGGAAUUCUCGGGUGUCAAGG,0.144
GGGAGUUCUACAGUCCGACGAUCGGACAAGAAUCCUUCAAGAAACAGGAAAAAACUCCUAAAACACCAAAAGGACCUAGUUCUGUAGAAGACAUUAAAGCAAAAAUGCAAGCAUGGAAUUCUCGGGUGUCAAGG,0.306

# Series 3
# Target: Prothrombin, mature alpha-thrombin (F2, Homo sapiens, UniProt P00734)
# Technique: aptamer microarray, sandwich
# Molecule type: DNA with 2'F-ANA
# Medium: in vitro
# Tested at: 200 nM
# Notes: whole 15-mer aptamer, many near background
# Together with: Cy3 exosite-II aptamer, 400 nM
# Reading: higher = stronger binding
Sequence,mean fluorescence intensity [a.u.]
GGTTGGTGTGGTTGG (2'F-ANA at 3 5 6 8 11 13 15),86.1
GGTTGGTGTGGTTGG (2'F-ANA at 2 4 6 7 9 12 13 15),305
GGTTGGTGTGGTTGG (2'F-ANA at 2 3 5 6 7 13 14 15),59.2

# Further values, each from its own experiment
Substance,target,test,test system,conditions,scale,quantity,result
"PhoQ, residues 284 288 289 292 302 303 AQGLTV","PhoP, residues 12 14 15 18 19 LFHKL (Escherichia coli, UniProt P23836)","Sort-seq, refers to: YFP reporter",E. coli,"PhoQ-PhoP variant library, together with: 10 µM Mg2+","relative to: high Mg2+ state, higher = stronger signaling",fold induction,2.46

# For quick reference, copied from above (series 3):
Sequence,mean fluorescence intensity [a.u.]
GGTTGGTGTGGTTGG (2'F-ANA at 3 5 6 8 11 13 15),86.1
